Measured values pooled from the literature.
Numbered parts are unrelated; each lists some results of a single study. Positions count from the first letter of the parent shown.

Block 1
Target: CCND3, cyclin fold, Cln2 fusion (human)
Technique: yeast growth competition, sequencing
Sample: yeast
Notes: weak parent motif
Reference: not given
Direction: higher = stronger binding
Starting sequence: REPIN1 docking peptide (human); QSFRGWVALVLHL
| Substitution | normalised enrichment score |
| --- | --- |
| QSFRGWVALVAHL [L11A] | 0.0939 |
| QSFRAWVALVLHL [G5A] | 0.117 |
| QSFAGWVALVLHL [R4A] | -0.066 |
| QSFRGWVALVLAL [H12A] | 0.277 |
| QAFRGWVALVLHL [S2A] | -0.0325 |
| QSARGWVALVLHL [F3A] | 0.0646 |

Block 2
Target: Phosphate system positive regulatory protein PHO4, full length, GST-tagged (PHO4, Saccharomyces cerevisiae, UniProt P07270, residues 1-312)
Technique: competition protein-binding microarray
Form: double-stranded DNA, one strand shown
Sample: in vitro
Concentration: 2 µM
Notes: whole 60-bp probe, lowest competitor level
Together with: Cbf1 competitor, 0.05 µM
Direction: higher = stronger binding
Target sequence (chain): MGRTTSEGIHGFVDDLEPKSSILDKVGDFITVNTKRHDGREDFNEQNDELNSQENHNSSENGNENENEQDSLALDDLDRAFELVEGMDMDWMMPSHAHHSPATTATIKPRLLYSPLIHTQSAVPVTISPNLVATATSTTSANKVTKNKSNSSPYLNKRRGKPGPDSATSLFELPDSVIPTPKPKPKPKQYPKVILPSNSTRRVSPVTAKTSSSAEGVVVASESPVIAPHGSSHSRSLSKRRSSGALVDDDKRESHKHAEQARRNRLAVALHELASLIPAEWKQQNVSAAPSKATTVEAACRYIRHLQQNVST
| Oligonucleotide | fluorescence intensity [a.u.] |
| --- | --- |
| CTAACGAAGGTTTGACGAGTGGGTGACAAGCCAAGTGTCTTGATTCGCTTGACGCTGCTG | 3920 |
| GAAGTTACCATTACCTGCATGACAAACAATGGCGTTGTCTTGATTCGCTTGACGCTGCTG | 5300 |
| CATCATATATGTCGGCACGTTTTTCCATTCAGGAAAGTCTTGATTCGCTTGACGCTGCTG | 14700 |
| TACCAAAAGTATTCATACGTGGCCGCTTGTTACCCCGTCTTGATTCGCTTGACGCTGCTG | 5100 |
| CGTCCTAGCGATTGAGGCGTGGGTGCCATGAGGAAGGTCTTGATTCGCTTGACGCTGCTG | 9250 |
| CGCAGTATATCGTTACGCGTGAGGAGGATCTGCGCTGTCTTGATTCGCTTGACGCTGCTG | 5260 |
| CCGCTAAGCCCGAGAGCCGTGCGATCTATGTTTCTTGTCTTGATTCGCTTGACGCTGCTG | 4830 |
| TACTCTGTAGTATTCCCCGTGAGGATCCACAGCACCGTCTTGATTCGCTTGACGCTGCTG | 5320 |
| GGCAAGAGTTCTGCATTCGTGATGGATATCGGCGCGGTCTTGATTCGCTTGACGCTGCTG | 4330 |
| CTTCTGTAAATTTGGCAAGTGGGTGGACGCGCCCCGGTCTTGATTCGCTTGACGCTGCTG | 4350 |
| AACCAGTTGTTAAATCATGTGGTTATGGTCTTGTCGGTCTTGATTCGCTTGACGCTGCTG | 8120 |
| GGTTGTTTAACAATAAACGTGTAGAGTACAGGTAGAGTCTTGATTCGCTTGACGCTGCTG | 10800 |
| GTTAATTAATCAAGCAACGTGCGGAGTTTTATCACAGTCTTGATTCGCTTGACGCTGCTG | 14900 |
| AGTACACATACTTTGCACGTGCGGACGGAACAATGGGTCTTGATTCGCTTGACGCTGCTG | 18500 |
| CGGGGTTAAGTTTTTCACGTGAAGTGCTTGCAGCAGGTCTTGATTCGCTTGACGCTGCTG | 8570 |
| GCACTAGTCCAATAAGTCGTGCGATTCCAAAGTTCAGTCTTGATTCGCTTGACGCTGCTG | 6720 |
| TCAAACAGCACAGTCTACATGACGCCTGGTGATTTGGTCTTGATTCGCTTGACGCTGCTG | 5100 |
| GTCTTGTCTCATTGGTGCGTGGGTGTCCCCACTTCAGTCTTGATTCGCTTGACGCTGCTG | 10000 |
| CATACCCAACCTTTTCACGTGGTCTAAGATATTTGTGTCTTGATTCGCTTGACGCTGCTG | 14300 |
| TGCTATTGATATTACGACATGTGTGCTTCTCATGATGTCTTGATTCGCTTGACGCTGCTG | 9390 |
| GTCTTGTCTCATTTTCACGTGGGTTTCCCCACTTCAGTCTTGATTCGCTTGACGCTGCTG | 14400 |
| AAAGTAACCCACTTTAACGTGACGGAACCTGAGCTGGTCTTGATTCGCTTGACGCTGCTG | 4960 |

Block 3
Target: RING finger protein unkempt homolog, zinc fingers 1-6, GST-SBP tag (UNK, Homo sapiens, UniProt Q9C0B0, residues 30-357)
Sequence of UniProt Q9C0B0 (30-357, looked up): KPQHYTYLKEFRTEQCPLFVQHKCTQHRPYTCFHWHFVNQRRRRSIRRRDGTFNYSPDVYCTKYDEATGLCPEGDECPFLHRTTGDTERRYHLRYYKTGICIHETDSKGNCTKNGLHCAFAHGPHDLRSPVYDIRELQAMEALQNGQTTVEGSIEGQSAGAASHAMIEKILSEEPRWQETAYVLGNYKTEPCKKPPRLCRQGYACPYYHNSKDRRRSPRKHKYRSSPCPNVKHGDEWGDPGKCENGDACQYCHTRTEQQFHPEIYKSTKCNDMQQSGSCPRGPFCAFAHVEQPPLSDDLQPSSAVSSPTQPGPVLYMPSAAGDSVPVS
Technique: RNA Bind-n-Seq
Form: RNA
Sample: in vitro
Concentration: not given
Notes: RNA with constant flanks, human-mouse chimeric sites, ends assumed
Reference: input RNA pool
Direction: higher = stronger binding
| Oligonucleotide | bound/input enrichment [ratio] |
| --- | --- |
| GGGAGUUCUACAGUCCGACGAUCUGUGCAUAUGAUGCUUGAGAUGGUUUUUGCAAAAGCAGAAAUCGCUGCAAGGUAAUCCUAAUAGAGAAAAGUGGUAUUUUAAACCUUUGAAAGGAAUGGAUGUAACUGUACCUUGGUACACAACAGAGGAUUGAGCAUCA | 0.471 |
| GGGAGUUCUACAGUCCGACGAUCCUCGGCACCGGCACGCUUUACAUCGCUGAGAGCCGCCUGUCUUGGUUAGAUGGUUCGGGAUUAGGAUUCUCACUGGAAUACCCCACCAUUAGUUUACAUGCGGUGUCCAGGGAUCCAAACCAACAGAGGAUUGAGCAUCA | 0.391 |
| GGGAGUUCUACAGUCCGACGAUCCCCCAAUUACCAUCUGUGGUCUGGAACUGCACUCUCUUUUUUAAAAAAUAUGCAUAUAUUUUAGGGCUGUAGAUUUAUUUUCCUGGUUUUGUUUUUCAUUGCUGACUUUUGAGCACAGAACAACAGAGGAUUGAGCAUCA | 1.11 |
| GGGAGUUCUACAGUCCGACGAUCUUACCCGAGAACGAGGAUGAGCUGGAGAGCACCAACAGGCGCUACACCAAGAGGGACUGCAGCACUUUCCUCAGAACUAGCGAGACGGGCAUCGUGGAUCAGGUUAUGGUCACUCUCAACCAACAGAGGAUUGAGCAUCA | 0.134 |
| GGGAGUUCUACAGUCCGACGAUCAUGGAGAAGGAUUCUCUGCCCCGCUUUGUGCGCUCUGAAUUUUAUAAGGAGUUAAUCAAGUAGUCAUCUGGUCAGGCUAUGAAAUCAUGCCCUGUGAGUUGAGUUACAUCCUUUGUAGCACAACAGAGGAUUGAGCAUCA | 0.269 |
| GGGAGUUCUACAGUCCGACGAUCAACAGAUUGUCUUUAAGGUCAACGUAGGAGAAUGCUGAAAUAGUCAUUGUUGCCCAUGUGCCUUCUGACUGAGCUUUAAUGCUGUUCCAUGUUACAUCUUUCCUUCACUCCAGAAUUGUUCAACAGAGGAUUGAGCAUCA | 0.175 |
| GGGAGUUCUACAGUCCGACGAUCGAUCCACAGUGGUCUGAGGAGCAACUCAUUGCUGCAAAAUUCUGUUUUGCUGGACUUGUUAUAGGGCAGACUGAAGUGGACAUCAUGAGUCAUGCCACACAAGCUAUAUUUGAAAUACUGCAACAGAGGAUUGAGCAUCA | 0.182 |
| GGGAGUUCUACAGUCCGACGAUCUAAGUCCUGUGCCAGCACUUCGCUCAUUAUAUUUUAAAUUCUGGACCAAUAGUGUUUGUUUCCUGAUUAUUGUAUCCAAUACUUUGCCUAGUAUGUAACUCAUGCUUACUGAUAAUAAAACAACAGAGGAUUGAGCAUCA | 2.02 |
| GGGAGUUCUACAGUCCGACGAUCAACUUUGUGCAUCGGUUUCCCUUUGUAGCUGUUUCAAUUGGCUUCCUUGUGAAUAAAGAGAUGGAGUUUGGAGUUGUGUACAGCUGUGUGGAAGAUAAGAUGUACACCGGCAGGAAAGGGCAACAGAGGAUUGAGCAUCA | 0.458 |
| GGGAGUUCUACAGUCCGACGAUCGUGACUGGUGUUAAGAUUUCCCCUCAGAAAAGAACUGCAGUAGUCACAAUAAUCCCUUCUGUGGUGAGUGCCAGUCAGAUUGUGGAGCUGGUCCCAGACCUCAGUUUAGACAUGGGAACUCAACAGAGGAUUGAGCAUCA | 0.213 |
| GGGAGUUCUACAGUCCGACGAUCGCUCCUCCCCGCUCUGCAGCCUGGGGACUUUUGGCAAGGACCAGAAUCCAGCUUUCUUUUAAAACUCUAUAUUUUUUUGUAUCCCGUGACAUUUCAUUUUUUUUAAAUAGUGUAUUUUUUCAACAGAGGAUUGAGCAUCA | 18.8 |

Block 4
Target: Histone acetyltransferase KAT6A, winged helix 1, GST fusion (KAT6A, Homo sapiens, UniProt Q92794, residues 1-85)
Technique: protein binding microarray
Form: double-stranded DNA, one strand shown
Sample: in vitro
Concentration: not given
Notes: 8-mer, flanks averaged, mean of 2 arrays, mostly near background
Reference: not given
Direction: higher = stronger binding
Residues (chain): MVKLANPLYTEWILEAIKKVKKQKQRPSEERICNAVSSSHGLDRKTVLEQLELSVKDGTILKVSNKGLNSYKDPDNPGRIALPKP
| Oligonucleotide | E-score |
| --- | --- |
| CAAGTTGC | -0.0538 |
| ACCGCACG | 0.321 |
| GGGCGACA | 0.3 |
| CGCGCAAG | 0.352 |
| CCCGCACA | 0.358 |
| CGGTAATC | 0.229 |
| ACCACTAA | -0.268 |
| CGTTAGAG | 0.0456 |
| ATATCGCC | 0.151 |
| GACTTGAA | -0.224 |
| GGCTCTAC | -0.0193 |
| GAAGAATC | -0.0289 |
| CACAATGG | -0.213 |
| TCGAAGCA | -0.246 |
| ACTCACAA | -0.272 |
| GCTTAACC | -0.0123 |
| GGATTAAC | 0.109 |
| ATCCGAGC | 0.133 |

Block 5
Target: Interferon regulatory factor 5, full length, phosphomimetic (IRF5, Homo sapiens, UniProt Q13568-2, residues 1-514, S451D/S453D/S456D/S462D)
Technique: protein-binding microarray
Form: double-stranded DNA, one strand shown
Sample: in vitro
Concentration: 940 nM top
Notes: 60-bp whole probe
Together with: salmon DNA 0.4 mg/ml
Reference: random background probes
Direction: higher = stronger binding
Shared flanks, not repeated: GCCTAGCAC … GTCTTGATTCGCTTGACGCTGCTG
| Oligonucleotide | fitted relative affinity [z-score] |
| --- | --- |
| ATTGATAGTTTCACAATGCCGTGCTAG | 4 |
| GACGGACTGCTTTTCCTGGCGTGCTAG | -0.292 |
| TTAGATTTCGACTATCGGTTAGTGCTA | 0.993 |
| TTAGGACTGCGGTTTCGGTTAGTGCTA | 5.99 |
| TTAGATATCGGGTCTGGATTAGTGCTA | -0.163 |
| TATTTTGGAAACTCACAACAGTGCTAG | -0.00473 |
| TTAGATATGGGGACTGGATTAGTGCTA | -0.0925 |
| TCATATACCACTCTTGCACTGTGCTAG | 0.654 |
| TTAGATCTCACACTGGATTAGTGCTAG | 0.103 |
| GACGGTTTCCCTCTCCTGACGTGCTAG | 1.45 |
| GACGGTTTCGGTACTGGGGACGTGCTA | 12.4 |
| GACGGTATCGACTGTCGGGACGTGCTA | 4.48 |
| GACGGTTTCGATTATCGGGACGTGCTA | 12 |
| TCAATTTTGGTTTTCATACTGTGCTAG | 1.65 |
| GACGGACTGCTTTTCCTGACGTGCTAG | -0.194 |
| GACGGTTTCGGTATCGGGCCGTGCTAG | 13.3 |
| GACGGTCTCCTTATACTGACGTGCTAG | 0.518 |
| GACGGCCTGGGGACTGGGGACGTGCTA | -0.713 |

A few entries again (block 5):
| Oligonucleotide | fitted relative affinity [z-score] |
| --- | --- |
| GACGGCCTGGGGACTGGGGACGTGCTA | -0.713 |
| GACGGTATCGACTGTCGGGACGTGCTA | 4.48 |
| GACGGTCTCCTTATACTGACGTGCTAG | 0.518 |
| GACGGACTGCTTTTCCTGGCGTGCTAG | -0.292 |
| TTAGATATGGGGACTGGATTAGTGCTA | -0.0925 |
| GACGGTTTCGGTACTGGGGACGTGCTA | 12.4 |
| TCAATTTTGGTTTTCATACTGTGCTAG | 1.65 |
| GACGGTTTCGATTATCGGGACGTGCTA | 12 |
| TTAGATCTCACACTGGATTAGTGCTAG | 0.103 |
| GACGGTTTCCCTCTCCTGACGTGCTAG | 1.45 |
